Experimental data pooled from the literature.
Every numbered part comes from another study and shows a few of its results, in no order. Substitutions count along the parent as printed.

Series 1
Target: CCNB3, cyclin fold, Cln2 fusion (human)
Method: yeast growth competition, sequencing
Matrix: yeast
Notes: strong parent motif
Relative to: not given
Direction: higher = stronger binding
Starting sequence: BRCA2 docking peptide (human); PSIKRNLLNEFDR; partner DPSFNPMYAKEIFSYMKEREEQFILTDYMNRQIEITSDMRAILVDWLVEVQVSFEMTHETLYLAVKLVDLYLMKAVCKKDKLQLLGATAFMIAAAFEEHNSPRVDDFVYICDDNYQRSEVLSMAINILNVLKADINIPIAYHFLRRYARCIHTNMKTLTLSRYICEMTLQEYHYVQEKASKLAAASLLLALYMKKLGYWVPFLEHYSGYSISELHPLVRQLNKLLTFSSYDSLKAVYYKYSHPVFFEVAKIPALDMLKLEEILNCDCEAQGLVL
Variant | normalised enrichment score
PIIKRNLLNEFDR [S2I] | 1.44
PSEKRNLLNEFDR [I3E] | 0.166
PSIKRNLLNEYDR [F11Y] | 0.609
PSIKRNLLNKFDR [E10K] | -0.284
PQIKRNLLNEFDR [S2Q] | 0.978
PSIGRNLLNEFDR [K4G] | -0.0606

Series 2
Target: ABI1, truncated, D143A, DHFR fusion (Arabidopsis thaliana)
Method: DHFR PCA, deep sequencing
Matrix: yeast
Notes: methotrexate growth selection, single substitutions
Together with: (+)-ABA 0.39 µM
Relative to: wild-type fitted maximum
Direction: higher = stronger binding
Starting sequence: PYL1, truncated, DHFR fusion (Arabidopsis thaliana); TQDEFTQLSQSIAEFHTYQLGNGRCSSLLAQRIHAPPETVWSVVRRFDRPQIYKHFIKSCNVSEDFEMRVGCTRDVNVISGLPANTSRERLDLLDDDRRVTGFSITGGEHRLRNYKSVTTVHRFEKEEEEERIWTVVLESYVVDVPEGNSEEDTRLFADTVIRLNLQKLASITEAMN
Variant | relative binding score [%]
R113C | 9.89
Y115Q | -18.7
S11Q | 46.9
T39A | 33.2
E4P | 24.7

Series 3
Target: TAR DNA-binding protein 43, full length, His tag (TARDBP, Homo sapiens, UniProt Q13148, residues 1-414)
Method: RNA Bind-n-Seq
Form: RNA
Matrix: in vitro
Tested at: 20 nM
Notes: 6-mer, flanks averaged, single round
Together with: 150 mM KCl
Relative to: input library
Direction: higher = stronger binding
Strand | 6-mer enrichment (R)
ACUCGU | 0.575
GAACCA | 0.737
GUAAGC | 0.846
UUCGAA | 0.62
GUCACC | 0.708
UACUCG | 0.586
GCCGCA | 0.935

Other studies, line by line
Molecule | target | assay | test system | conditions | scale | measurement | result
PhoQ, residues 284 288 289 292 302 303 SVHLDV | PhoP, residues 12 14 15 18 19 NQAHL (Escherichia coli, UniProt P23836) | Sort-seq, refers to: YFP reporter | E. coli | PhoQ-PhoP variant library, together with: 10 µM Mg2+ | relative to: high Mg2+ state, higher = stronger signaling | fold induction | 1.33

A few entries again (series 3):
Strand | 6-mer enrichment (R)
ACUCGU | 0.575
